{"data": "Measurements collected from several papers", "SIRT5": "NAD-dependent protein deacylase sirtuin-5, mitochondrial (SIRT5, Homo sapiens, UniProt Q9NXA8)", "SIRT2": "NAD-dependent protein deacetylase sirtuin-2 (SIRT2, Homo sapiens, UniProt Q8IXJ6)", "blaNDM-1": "Metallo-beta-lactamase type 2 (blaNDM-1, Klebsiella pneumoniae, UniProt C7C422)", "lasR": "Transcriptional activator protein LasR (lasR, Pseudomonas aeruginosa, UniProt P25084)", "Formate-nitrite transporter": "Formate-nitrite transporter (Plasmodium falciparum, UniProt O77389)", "note": "Each line is one published result; not all experiments were run side by side. ± marks the error that the study gave.", "chain of UniProt O77389 (whole entry, looked up)": "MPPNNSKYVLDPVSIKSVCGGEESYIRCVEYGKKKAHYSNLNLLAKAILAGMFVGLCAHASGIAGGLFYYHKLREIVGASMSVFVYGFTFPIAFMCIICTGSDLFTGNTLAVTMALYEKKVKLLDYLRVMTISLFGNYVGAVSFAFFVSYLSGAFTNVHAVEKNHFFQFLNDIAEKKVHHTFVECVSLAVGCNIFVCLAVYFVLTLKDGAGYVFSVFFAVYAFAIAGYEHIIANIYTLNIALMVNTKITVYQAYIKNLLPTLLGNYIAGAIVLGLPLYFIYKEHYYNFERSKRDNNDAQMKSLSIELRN", "chain of UniProt C7C422 (whole entry, looked up)": "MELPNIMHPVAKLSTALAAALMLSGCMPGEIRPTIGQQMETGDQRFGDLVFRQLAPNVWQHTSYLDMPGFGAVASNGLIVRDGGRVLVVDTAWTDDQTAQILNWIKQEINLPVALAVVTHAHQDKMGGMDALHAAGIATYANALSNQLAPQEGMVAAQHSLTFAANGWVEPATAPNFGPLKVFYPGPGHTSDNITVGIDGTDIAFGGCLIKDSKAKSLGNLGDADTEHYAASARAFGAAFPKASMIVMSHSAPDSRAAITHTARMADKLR", "chain of UniProt Q9NXA8 (whole entry, looked up)": "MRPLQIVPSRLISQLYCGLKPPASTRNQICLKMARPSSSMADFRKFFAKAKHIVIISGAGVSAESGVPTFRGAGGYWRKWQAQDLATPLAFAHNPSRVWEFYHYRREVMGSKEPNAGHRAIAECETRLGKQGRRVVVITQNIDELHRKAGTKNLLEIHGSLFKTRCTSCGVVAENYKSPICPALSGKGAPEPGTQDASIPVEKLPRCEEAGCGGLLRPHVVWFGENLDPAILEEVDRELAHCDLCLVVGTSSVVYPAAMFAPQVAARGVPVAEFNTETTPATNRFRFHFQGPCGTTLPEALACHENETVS", "chain of UniProt P25084 (whole entry, looked up)": "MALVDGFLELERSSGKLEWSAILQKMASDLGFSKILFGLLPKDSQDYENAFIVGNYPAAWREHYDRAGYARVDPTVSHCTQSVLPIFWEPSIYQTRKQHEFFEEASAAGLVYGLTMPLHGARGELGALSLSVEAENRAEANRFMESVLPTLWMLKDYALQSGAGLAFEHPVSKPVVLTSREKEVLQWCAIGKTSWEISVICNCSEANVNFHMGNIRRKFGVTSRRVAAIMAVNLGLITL", "chain of UniProt Q8IXJ6 (whole entry, looked up)": "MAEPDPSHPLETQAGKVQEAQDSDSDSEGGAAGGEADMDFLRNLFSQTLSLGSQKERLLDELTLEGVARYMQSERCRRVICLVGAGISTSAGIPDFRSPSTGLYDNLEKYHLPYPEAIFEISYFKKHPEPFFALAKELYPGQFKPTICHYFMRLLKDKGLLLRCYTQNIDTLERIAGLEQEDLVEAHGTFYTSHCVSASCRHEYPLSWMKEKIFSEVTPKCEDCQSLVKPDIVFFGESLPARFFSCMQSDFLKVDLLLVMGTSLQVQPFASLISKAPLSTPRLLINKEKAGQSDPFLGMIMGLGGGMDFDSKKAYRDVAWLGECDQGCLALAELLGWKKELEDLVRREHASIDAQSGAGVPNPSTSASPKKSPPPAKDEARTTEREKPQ", "chain of UniProt Q9Y2J8 (whole entry, looked up)": "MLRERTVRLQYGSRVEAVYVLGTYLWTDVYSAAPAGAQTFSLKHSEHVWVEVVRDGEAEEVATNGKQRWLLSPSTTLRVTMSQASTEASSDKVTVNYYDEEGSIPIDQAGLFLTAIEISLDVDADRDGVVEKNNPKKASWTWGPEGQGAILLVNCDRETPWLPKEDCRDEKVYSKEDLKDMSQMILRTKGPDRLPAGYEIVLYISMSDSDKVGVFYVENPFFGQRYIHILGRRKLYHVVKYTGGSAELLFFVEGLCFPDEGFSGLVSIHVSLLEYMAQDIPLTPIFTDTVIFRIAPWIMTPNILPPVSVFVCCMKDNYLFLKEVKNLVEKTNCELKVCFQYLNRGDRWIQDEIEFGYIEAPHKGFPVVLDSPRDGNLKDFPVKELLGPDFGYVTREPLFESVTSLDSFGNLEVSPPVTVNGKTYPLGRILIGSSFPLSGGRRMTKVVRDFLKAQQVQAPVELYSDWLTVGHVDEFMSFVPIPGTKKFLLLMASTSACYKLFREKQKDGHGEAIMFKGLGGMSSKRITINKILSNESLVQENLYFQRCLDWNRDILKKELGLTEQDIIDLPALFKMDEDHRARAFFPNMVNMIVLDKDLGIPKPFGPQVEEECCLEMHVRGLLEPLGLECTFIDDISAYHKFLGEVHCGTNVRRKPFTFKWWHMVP", "chain of UniProt P32019 (whole entry, looked up)": "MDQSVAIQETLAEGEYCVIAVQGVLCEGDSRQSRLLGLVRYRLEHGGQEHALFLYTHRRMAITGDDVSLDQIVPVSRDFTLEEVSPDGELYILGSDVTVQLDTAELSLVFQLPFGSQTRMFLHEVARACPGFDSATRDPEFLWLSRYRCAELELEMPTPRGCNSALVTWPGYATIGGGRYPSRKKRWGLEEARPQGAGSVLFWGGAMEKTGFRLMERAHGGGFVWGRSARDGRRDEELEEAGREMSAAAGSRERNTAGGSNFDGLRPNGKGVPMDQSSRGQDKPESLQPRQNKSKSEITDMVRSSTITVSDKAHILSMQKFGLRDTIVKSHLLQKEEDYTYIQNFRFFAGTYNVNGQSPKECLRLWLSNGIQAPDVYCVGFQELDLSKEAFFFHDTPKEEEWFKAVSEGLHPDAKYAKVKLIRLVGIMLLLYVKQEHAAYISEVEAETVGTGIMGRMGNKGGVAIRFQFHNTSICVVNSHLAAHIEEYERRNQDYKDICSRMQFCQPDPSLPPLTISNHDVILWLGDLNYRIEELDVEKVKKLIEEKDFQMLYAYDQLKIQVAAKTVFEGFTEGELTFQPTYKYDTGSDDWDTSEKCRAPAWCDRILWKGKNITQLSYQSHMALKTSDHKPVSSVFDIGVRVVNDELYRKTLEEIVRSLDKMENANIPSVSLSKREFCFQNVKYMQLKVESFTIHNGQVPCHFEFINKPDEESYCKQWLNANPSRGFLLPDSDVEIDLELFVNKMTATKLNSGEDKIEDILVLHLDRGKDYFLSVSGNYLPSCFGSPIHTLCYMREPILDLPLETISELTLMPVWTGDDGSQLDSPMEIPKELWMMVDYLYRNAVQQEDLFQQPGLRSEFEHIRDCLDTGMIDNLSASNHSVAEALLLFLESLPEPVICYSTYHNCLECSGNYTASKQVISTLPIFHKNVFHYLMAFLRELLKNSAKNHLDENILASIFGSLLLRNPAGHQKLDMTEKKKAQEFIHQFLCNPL", "chain of UniProt P19490 (whole entry, looked up)": "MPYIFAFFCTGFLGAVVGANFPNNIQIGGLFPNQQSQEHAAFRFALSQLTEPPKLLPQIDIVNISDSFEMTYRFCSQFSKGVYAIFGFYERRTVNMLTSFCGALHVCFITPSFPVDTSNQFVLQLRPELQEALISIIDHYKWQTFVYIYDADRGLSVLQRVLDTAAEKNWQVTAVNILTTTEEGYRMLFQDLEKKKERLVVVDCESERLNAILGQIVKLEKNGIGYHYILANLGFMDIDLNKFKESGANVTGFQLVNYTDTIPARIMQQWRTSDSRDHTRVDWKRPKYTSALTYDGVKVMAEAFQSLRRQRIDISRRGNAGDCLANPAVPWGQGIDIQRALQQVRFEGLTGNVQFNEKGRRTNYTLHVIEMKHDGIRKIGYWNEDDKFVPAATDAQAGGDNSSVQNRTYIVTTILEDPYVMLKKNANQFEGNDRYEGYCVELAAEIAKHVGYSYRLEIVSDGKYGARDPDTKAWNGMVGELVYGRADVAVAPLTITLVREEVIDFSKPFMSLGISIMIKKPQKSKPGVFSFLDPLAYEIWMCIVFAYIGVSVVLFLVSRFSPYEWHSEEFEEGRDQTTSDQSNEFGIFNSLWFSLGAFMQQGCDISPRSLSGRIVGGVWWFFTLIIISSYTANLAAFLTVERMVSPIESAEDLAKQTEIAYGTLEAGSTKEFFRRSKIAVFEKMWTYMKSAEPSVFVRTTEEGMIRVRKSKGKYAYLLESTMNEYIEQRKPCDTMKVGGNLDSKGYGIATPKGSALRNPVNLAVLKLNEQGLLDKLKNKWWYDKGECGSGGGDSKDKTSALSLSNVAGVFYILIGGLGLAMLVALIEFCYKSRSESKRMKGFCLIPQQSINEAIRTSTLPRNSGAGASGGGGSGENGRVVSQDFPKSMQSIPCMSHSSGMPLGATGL", "chain of UniProt Q99436 (whole entry, looked up)": "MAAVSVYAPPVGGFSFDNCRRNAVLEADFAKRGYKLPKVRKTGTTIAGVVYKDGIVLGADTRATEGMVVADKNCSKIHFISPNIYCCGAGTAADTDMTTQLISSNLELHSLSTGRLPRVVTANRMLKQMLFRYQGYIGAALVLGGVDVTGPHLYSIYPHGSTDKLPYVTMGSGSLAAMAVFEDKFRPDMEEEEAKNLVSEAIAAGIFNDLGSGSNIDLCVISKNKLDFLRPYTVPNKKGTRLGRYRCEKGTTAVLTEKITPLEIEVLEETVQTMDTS", "chain of UniProt P33261 (whole entry, looked up)": "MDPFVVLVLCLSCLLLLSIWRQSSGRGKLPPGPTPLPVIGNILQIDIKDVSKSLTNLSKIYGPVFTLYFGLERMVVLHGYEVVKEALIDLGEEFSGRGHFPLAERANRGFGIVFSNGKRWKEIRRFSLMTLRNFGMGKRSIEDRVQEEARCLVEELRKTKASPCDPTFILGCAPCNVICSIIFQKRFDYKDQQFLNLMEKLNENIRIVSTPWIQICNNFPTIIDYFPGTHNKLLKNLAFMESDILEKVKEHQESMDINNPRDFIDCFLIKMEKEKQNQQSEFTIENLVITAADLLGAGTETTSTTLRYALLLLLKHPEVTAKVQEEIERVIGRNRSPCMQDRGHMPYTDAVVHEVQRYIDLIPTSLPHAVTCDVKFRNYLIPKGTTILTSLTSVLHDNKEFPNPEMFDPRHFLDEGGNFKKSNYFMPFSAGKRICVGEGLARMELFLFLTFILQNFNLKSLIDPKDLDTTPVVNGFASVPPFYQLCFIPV"}
{"SMILES": "CC(C)C[C@H](NC(=O)[C@H](Cc1ccc(CN)cc1)NC(=O)[C@H](Cc1ccccc1)N=[N+]=[N-])C(=O)N[C@@H](CC1CCC(C2CCCCC2)CC1)C(=O)[C@@]1(C)CO1 (stereo partly shown)", "target": "PSMB7 (Homo sapiens, UniProt Q99436)", "test": "inhibitor, competitive ABPP", "system": "Raji cell lysate", "conditions": "constitutive proteasome β2c", "IC50": "2.33 µM"}
{"SMILES": "Cc1ccc(C2=CCC(C)(C)c3ccc(C(=O)Nc4ccc(C(=O)O)cc4)cc32)cc1", "target": "RARA (Homo sapiens, UniProt P10276)", "IC50": "0.015 µM"}
{"SMILES": "O=P(O)(O)Oc1cc(OP(=O)(O)O)c(OP(=O)(O)O)cc1OP(=O)(O)O", "target": "Type II inositol 1,4,5-trisphosphate 5-phosphatase (Homo sapiens, UniProt P32019)", "IC50": "6.3 ± 0.8 µM"}
{"SMILES": "CC(C)(COP(=O)(O)OP(=O)(O)OC[C@H]1O[C@@H](n2cnc3c(N)ncnc32)[C@H](O)[C@@H]1OP(=O)(O)O)[C@@H](O)C(=O)NCCC(=O)NCCSCC(=O)N[C@@H](CO)C(=O)NCC(=O)N[C@@H](CCCNC(=N)N)C(=O)NCC(=O)N[C@@H](CCCCN)C(=O)NCCOCCOCC(=O)NCCCC[C@H](NC(=O)CC[C@@H]1NC(=O)[C@@H](CCCNC(=N)N)NC(=O)[C@H](CCCNC(=N)N)NC(=O)[C@@H](CCCNC(=N)N)NC(=O)[C@H](CCCNC(=N)N)NC(=O)[C@H](Cc2csc3ccccc23)NC(=O)[C@@H](Cc2ccccc2)NC(=O)[C@H](Cc2ccccc2)NC1=O)C(N)=O", "target": "NAA40 (Homo sapiens, UniProt Q86UY6)", "test": "enzyme activity, inhibitor, fluorescence", "IC50": "0.13 µM"}
{"SMILES": "CC(C)C[C@H](NC(=O)[C@H]1O[C@@H]1C(=O)O)C(=O)NCCCCN=C(N)N", "target": "Cathepsin S (CTSS, Homo sapiens, UniProt P25774)", "test": "enzyme activity, inhibitor", "IC50": "0.00386 µM"}
{"SMILES": "O=P(O)(O)C(Nc1cc(Cl)cc(Cl)c1)P(=O)(O)O", "target": "polyphosphate kinase 2 (Cytophaga hutchinsonii, UniProt A0A6N4SMB5)", "test": "enzyme activity, inhibitor, HPLC", "conditions": "30 min, 37 °C, with: 0.04 mM ADP and 0.3 mM polyP", "IC50": "216 ± 8.8 µM"}
{"SMILES": "O=C(Nc1nccs1)c1c(O)c2c(n(Cc3ccccc3)c1=O)CCCC2", "target": "Uncharacterized protein (Trypanosoma brucei brucei, UniProt Q386Q8)", "test": "enzyme activity, inhibitor, coupled colorimetric", "conditions": "with: E. coli pyrophosphatase coupling", "IC50": "61.1 µM"}
{"SMILES": "C#CCNC(=O)c1ccc([P+](CCCC(=O)N[C@@H](CCCCNC(=O)c2cncc(OS(=O)(=O)F)c2)C(=O)N[C@@H](CCCNC(=N)N)C(=O)NC2CCC2)(c2ccccc2)c2ccccc2)cc1", "target": "SIRT5", "test": "inhibitor, fluorogenic", "conditions": "pre-incubation 4 h, with: NAD+ 500 µM", "IC50": "18.2 ± 0.6 µM"}
{"SMILES": "CSCC[C@@H]1NC(=O)[C@H](Cc2ccccc2)NC(=O)[C@H](NC(=O)[C@H](C)N)CSC(=O)[C@H](C(C)C)NC(=O)[C@H](Cc2ccccc2)NC1=O", "target": "Histidine kinase AgrC (Listeria monocytogenes, UniProt A8E0G3)", "test": "agr signalling", "IC50": "3.97 µM"}
{"SMILES": "CCN(CCCCOc1ccc(CCC(=O)N2CCC(Cc3ccccc3)CC2)cc1OC)Cc1ccccc1", "target": "Prothrombin (F2, Homo sapiens, UniProt P00734)", "test": "enzyme activity, inhibitor", "IC50": "> 100 µM"}
{"SMILES": "CNC(=S)NCCCC[C@H](NS(=O)(=O)c1ccc(C(=O)NCc2cn(CCCNc3ccc([N+](=O)[O-])c4nonc34)nn2)cc1)C(=O)N[C@@H](CCCNC(=N)N)C(=O)N[C@@H](CC1CCCCC1)C(=O)N[C@H](CCCCN)C(=O)N[C@@H](CC1CCCCC1)C(=O)N[C@H](CCCNC(=N)N)C(=O)N[C@@H](CC1CCCCC1)C(N)=O", "target": "SIRT2", "test": "enzyme activity, inhibitor, fluorescence", "IC50": "0.96 µM"}
{"SMILES": "Nc1nc(N)c2c(n1)OC1(CCNCC1)C2", "target": "TERT (Tribolium castaneum, UniProt Q0QHL8)", "test": "enzyme activity, inhibitor, fluorescence", "IC50": "95 µM"}
{"SMILES": "CCc1nnc(-c2c(OC)cc(-c3cnc4cc(-c5cnn(C)c5)ccn34)cc2OC)o1", "target": "CYP2C19 (Homo sapiens, UniProt P33261)", "test": "enzyme activity, inhibitor", "IC50": "> 10 µM"}
{"SMILES": "CC[C@H](C)[C@@H]1NC(=O)[C@@H]2CCCN2C(=O)[C@@H](CS)NC(=O)[C@H](CC(C)C)NC(=O)[C@@H](CCCNC(=N)N)NC(=O)[C@@H]([C@H](C)O)NC(=O)[C@H](CCC(=O)O)NC(=O)[C@@H]2CCCN2C1=O", "target": "blaNDM-1", "test": "enzyme activity, inhibitor, absorbance", "IC50": "9.21 µM"}
{"SMILES": "Cc1ccc2c(n1)c(-c1cccc(S(C)(=O)=O)c1)c(C)n2C/C(F)=C/CN", "target": "Cytochrome P450 2C9 (CYP2C9, Homo sapiens, UniProt P11712)", "test": "enzyme activity, inhibitor", "system": "human liver microsomes", "conditions": "without NADPH preincubation", "IC50": "0.22 µM"}
{"SMILES": "C#CCNC(=O)c1ccc(S(=O)(=O)N[C@@H](CCCCNC(=S)NC)C(=O)N[C@@H](CCCNC(=N)N)C(=O)N[C@@H](CC2CCCCC2)C(=O)N[C@H](CCCCN)C(=O)N[C@@H](CC2CCCCC2)C(N)=O)cc1", "target": "SIRT2", "test": "enzyme activity, inhibitor, fluorescence", "IC50": "0.37 µM"}
{"SMILES": "CC[C@H](C)[C@H](N)C(=O)N[C@@H](CCCNC(=N)N)C(=O)N[C@@H](CCC(N)=O)C(=O)N[C@@H](CCC(=O)O)C(=O)N[C@@H](CCC(=O)O)C(=O)N[C@H](C(=O)N[C@@H](CCC(N)=O)C(=O)N[C@@H](CCC(=O)O)C(=O)N[C@@H](CC(C)C)C(=O)O)C(C)C", "target": "HLA class I histocompatibility antigen, A alpha chain, allele A*26:01 (Homo sapiens, UniProt P04439)", "test": "peptide-MHC binding, radioligand competition binding", "IC50": "> 70 µM"}
{"SMILES": "O=C(Nc1ccccc1NC(=O)c1cccc(Cl)c1)c1cccc(Cl)c1", "target": "lasR", "test": "reporter gene, antagonist, lasI-LVAgfp reporter", "system": "PAO-JP2", "conditions": "efflux pump active, with: OdDHL 150 nM", "IC50": "63 µM"}
{"SMILES": "N[C@H](C(=O)N1CCCC1)C1CCN(c2nccc3c(-c4ncc(Cl)cc4Cl)cccc23)CC1", "target": "PADI2 (Homo sapiens, UniProt Q9Y2J8)", "test": "enzyme activity, inhibitor, GDH-coupled", "conditions": "with: CaCl2 1.5 mM", "IC50": "3.09 µM"}
{"SMILES": "C#CCNC(=O)c1ccc(S(=O)(=O)N[C@@H](CCCCNC(=O)c2cncc(OS(=O)(=O)F)c2)C(=O)N[C@@H](CCCNC(=N)N)C(=O)NC2CCC2)cc1", "target": "SIRT5", "test": "inhibitor, fluorogenic", "conditions": "0 h preincubation, non-tagged enzyme 150 nM, with: NAD+ 500 µM", "IC50": "> 200 µM"}
{"SMILES": "O=C(C=C(O)C(F)(F)C(F)(F)F)c1cccc(O)c1", "target": "Formate-nitrite transporter", "test": "L-lactate transport, inhibitor, fluorescence", "system": "yeast", "conditions": "pH 6.8, with: L-lactate 1 mM", "IC50": "0.312 ± 0.049 µM"}
{"SMILES": "CCCC[C@@H]1NC(=O)[C@@H](CCC(N)=O)NC(=O)[C@H]2CCCN2C(=O)[C@H](Cc2c[nH]c3ccccc23)NC(=O)[C@@H]2C[C@@H](O)CN2C(=O)[C@H](Cc2ccccc2CN)NC(=O)[C@@H]2CCCN2C(=O)[C@@H](CS)NC1=O", "target": "blaNDM-1", "test": "enzyme activity, inhibitor, absorbance", "IC50": "27.9 µM"}
{"SMILES": "COC(=O)Cc1cc2c(cc1C(=O)c1cccc(Br)c1)OCO2", "target": "Gria1 (Rattus norvegicus, UniProt P19490)", "test": "ion current, patch clamp", "IC50": "5.43 µM"}
{"SMILES": "COc1cc(CNc2ccc(C(=O)C=C(O)C(F)(F)C(F)(F)F)cn2)cc(OC)c1OC", "target": "Formate-nitrite transporter", "test": "L-lactate transport, inhibitor, fluorescence", "system": "yeast", "conditions": "pH 6.8, with: L-lactate 1 mM", "IC50": "0.212 ± 0.034 µM"}
{"SMILES": "O=C(CCCOc1cccc(Br)c1)N[C@H]1CCSC1=O", "target": "lasR", "test": "reporter gene, antagonist", "system": "Escherichia coli, JLD271 with LasR plasmid", "conditions": "with: OdDHL 2 nM", "IC50": "no inhibition"}
{"SMILES": "COCCCC1CCCCN1C(=O)Oc1ccc([N+](=O)[O-])cc1 (stereo not shown)", "target": "Prolyl endopeptidase (Mus musculus, UniProt Q9QUR6)", "test": "enzyme activity, inhibitor, fluorescence", "IC50": "> 100 µM"}
{"SMILES": "FC(F)(F)C(F)(F)c1cc(-c2cccnc2)n[nH]1", "target": "Formate-nitrite transporter", "test": "L-lactate transport, inhibitor, fluorescence", "system": "yeast", "conditions": "pH 6.8, with: L-lactate 1 mM", "IC50": "43.5 ± 21 µM"}
{"SMILES": "CSCC[C@@H]1NC(=O)[C@@H](CCCNC(=N)N)NC(=O)[C@H](CC(=O)O)NC(=O)[C@H]2CCCN2C(=O)[C@@H]([C@H](C)O)NC(=O)[C@H](C(C)C)NC(=O)[C@@H]2CCCN2C(=O)[C@@H](CS)NC1=O", "target": "blaNDM-1", "test": "enzyme activity, inhibitor, absorbance", "IC50": "25.6 µM"}
{"SMILES": "O=C(C=C(O)C(F)(F)C(F)(F)F)c1cccs1", "target": "Formate-nitrite transporter", "test": "L-lactate transport, inhibitor, fluorescence", "system": "yeast", "conditions": "pH 6.8, with: L-lactate 1 mM", "IC50": "0.061 ± 0.002 µM"}
{"SMILES": "Cc1cc(-c2ccc3ccccc3c2)nnc1NCCN1CCN(C)CC1", "target": "SLC47A2 (Homo sapiens, UniProt Q86VL8)", "test": "transport, inhibitor", "IC50": "1.9 µM"}
{"SMILES": "O=C(C=C(O)C(F)(F)C(F)(F)F)c1ccoc1", "target": "Formate-nitrite transporter", "test": "L-lactate transport, inhibitor, fluorescence", "system": "yeast", "conditions": "pH 6.8, with: L-lactate 1 mM", "IC50": "0.019 ± 0.001 µM"}
{"SMILES": "CCCCCCCCCCCCCCCCCC(=O)NC[C@H]1CC[C@H](C(=O)N[C@@H](CCC(=O)NCCCOCCOCCOCCCNC(=O)COCC(=O)N[C@@H](Cc2ccc(O)cc2)C(=O)NC(C)(Cc2ccccc2)C(=O)N[C@@H](CC(C)C)C(=O)N[C@@H](CCCC)C(=O)N[C@@H](CCCNC(=N)N)C(=O)N2CCC[C@H]2C(=O)N[C@@H](CCCNC(=N)NC)C(=O)N[C@@H](CC(N)=O)C(N)=O)C(=O)O)CC1 (stereo partly shown)", "target": "Neuromedin-U receptor 2 (Mus musculus, UniProt Q8BZ39)", "test": "ligand displacement, radioligand", "IC50": "0.000257 µM"}
{"SMILES": "CCOc1c(Cl)cnn(-c2ccccc2)c1=O", "target": "Disulfide bond formation protein B (Escherichia coli, UniProt P0A6M2, C49V/C8A)", "test": "enzyme activity, inhibitor", "IC50": "5.62 to 7.91 µM"}
{"SMILES": "Cc1nc(C)c(F)c(N2CCC(C3NC(=O)C3(C)C)CC2)n1 (stereo not shown)", "target": "Uncharacterized hydrolase SAUSA300_2518 (Staphylococcus aureus, UniProt Q2FDS6)", "test": "enzyme activity, inhibitor", "IC50": "> 50 µM"}
{"SMILES": "N=C(N)NCCC[C@H](NC(=O)[C@H](CCCCNC(=O)c1cncc(OS(=O)(=O)F)c1)NC(=O)CCC[P+](c1ccccc1)(c1ccccc1)c1ccccc1)C(=O)NC1CCC1", "target": "SIRT5", "test": "inhibitor, fluorogenic", "conditions": "pre-incubation 24 h, with: NAD+ 500 µM", "IC50": "5 ± 1.4 µM"}
{"SMILES": "CCCNc1ccc(C(=O)C=C(O)C(F)(F)C(F)(F)F)cn1", "target": "Formate-nitrite transporter", "test": "L-lactate transport, inhibitor, fluorescence assay in yeast", "conditions": "with: 1 mM L-lactate", "IC50": "0.113 µM"}
{"SMILES": "CCCCCC(=O)CC(=O)N[C@H]1CCOC1=O", "target": "lasR", "test": "reporter gene, antagonist", "system": "Escherichia coli, JLD271 with LasR plasmid", "conditions": "with: OdDHL 50 nM", "IC50": "2.9 µM"}
{"note": "For quick reference, copied from above:"}
{"SMILES": "Cc1ccc(C2=CCC(C)(C)c3ccc(C(=O)Nc4ccc(C(=O)O)cc4)cc32)cc1", "target": "RARA (Homo sapiens, UniProt P10276)", "IC50": "0.015 µM"}
{"SMILES": "C#CCNC(=O)c1ccc([P+](CCCC(=O)N[C@@H](CCCCNC(=O)c2cncc(OS(=O)(=O)F)c2)C(=O)N[C@@H](CCCNC(=N)N)C(=O)NC2CCC2)(c2ccccc2)c2ccccc2)cc1", "target": "SIRT5", "test": "inhibitor, fluorogenic", "conditions": "pre-incubation 4 h, with: NAD+ 500 µM", "IC50": "18.2 ± 0.6 µM"}
